Assay results of several laboratories.
A part holds a random share of what one study measured.
UniProt Q13043, sequence (whole entry, looked up): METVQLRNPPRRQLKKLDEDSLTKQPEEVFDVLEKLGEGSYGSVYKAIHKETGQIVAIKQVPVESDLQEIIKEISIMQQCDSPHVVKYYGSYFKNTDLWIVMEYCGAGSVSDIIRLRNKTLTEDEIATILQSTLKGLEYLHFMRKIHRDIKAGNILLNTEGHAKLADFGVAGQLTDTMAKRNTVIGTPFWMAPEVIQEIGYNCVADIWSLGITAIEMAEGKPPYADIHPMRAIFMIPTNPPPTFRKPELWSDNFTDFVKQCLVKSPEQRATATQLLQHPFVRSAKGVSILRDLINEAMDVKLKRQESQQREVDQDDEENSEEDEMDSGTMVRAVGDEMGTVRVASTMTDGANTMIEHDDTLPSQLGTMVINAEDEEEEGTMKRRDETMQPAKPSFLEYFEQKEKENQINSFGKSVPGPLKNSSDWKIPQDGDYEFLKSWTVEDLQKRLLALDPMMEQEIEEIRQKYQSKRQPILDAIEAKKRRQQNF
UniProt Q13177, sequence (whole entry, looked up): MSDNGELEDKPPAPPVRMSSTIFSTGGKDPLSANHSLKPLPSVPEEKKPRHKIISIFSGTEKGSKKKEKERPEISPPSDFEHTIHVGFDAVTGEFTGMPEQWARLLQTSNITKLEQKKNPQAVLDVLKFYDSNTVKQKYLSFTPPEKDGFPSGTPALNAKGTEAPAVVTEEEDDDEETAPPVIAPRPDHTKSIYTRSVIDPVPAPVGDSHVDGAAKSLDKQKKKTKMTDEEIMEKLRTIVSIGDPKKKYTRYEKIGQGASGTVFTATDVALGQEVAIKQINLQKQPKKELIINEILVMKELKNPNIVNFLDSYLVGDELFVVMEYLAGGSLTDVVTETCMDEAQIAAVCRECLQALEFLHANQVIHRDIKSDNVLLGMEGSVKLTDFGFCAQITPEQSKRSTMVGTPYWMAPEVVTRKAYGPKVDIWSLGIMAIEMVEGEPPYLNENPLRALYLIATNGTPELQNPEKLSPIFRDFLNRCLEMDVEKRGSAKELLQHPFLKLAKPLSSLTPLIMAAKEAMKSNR
UniProt O14578, sequence (whole entry, looked up): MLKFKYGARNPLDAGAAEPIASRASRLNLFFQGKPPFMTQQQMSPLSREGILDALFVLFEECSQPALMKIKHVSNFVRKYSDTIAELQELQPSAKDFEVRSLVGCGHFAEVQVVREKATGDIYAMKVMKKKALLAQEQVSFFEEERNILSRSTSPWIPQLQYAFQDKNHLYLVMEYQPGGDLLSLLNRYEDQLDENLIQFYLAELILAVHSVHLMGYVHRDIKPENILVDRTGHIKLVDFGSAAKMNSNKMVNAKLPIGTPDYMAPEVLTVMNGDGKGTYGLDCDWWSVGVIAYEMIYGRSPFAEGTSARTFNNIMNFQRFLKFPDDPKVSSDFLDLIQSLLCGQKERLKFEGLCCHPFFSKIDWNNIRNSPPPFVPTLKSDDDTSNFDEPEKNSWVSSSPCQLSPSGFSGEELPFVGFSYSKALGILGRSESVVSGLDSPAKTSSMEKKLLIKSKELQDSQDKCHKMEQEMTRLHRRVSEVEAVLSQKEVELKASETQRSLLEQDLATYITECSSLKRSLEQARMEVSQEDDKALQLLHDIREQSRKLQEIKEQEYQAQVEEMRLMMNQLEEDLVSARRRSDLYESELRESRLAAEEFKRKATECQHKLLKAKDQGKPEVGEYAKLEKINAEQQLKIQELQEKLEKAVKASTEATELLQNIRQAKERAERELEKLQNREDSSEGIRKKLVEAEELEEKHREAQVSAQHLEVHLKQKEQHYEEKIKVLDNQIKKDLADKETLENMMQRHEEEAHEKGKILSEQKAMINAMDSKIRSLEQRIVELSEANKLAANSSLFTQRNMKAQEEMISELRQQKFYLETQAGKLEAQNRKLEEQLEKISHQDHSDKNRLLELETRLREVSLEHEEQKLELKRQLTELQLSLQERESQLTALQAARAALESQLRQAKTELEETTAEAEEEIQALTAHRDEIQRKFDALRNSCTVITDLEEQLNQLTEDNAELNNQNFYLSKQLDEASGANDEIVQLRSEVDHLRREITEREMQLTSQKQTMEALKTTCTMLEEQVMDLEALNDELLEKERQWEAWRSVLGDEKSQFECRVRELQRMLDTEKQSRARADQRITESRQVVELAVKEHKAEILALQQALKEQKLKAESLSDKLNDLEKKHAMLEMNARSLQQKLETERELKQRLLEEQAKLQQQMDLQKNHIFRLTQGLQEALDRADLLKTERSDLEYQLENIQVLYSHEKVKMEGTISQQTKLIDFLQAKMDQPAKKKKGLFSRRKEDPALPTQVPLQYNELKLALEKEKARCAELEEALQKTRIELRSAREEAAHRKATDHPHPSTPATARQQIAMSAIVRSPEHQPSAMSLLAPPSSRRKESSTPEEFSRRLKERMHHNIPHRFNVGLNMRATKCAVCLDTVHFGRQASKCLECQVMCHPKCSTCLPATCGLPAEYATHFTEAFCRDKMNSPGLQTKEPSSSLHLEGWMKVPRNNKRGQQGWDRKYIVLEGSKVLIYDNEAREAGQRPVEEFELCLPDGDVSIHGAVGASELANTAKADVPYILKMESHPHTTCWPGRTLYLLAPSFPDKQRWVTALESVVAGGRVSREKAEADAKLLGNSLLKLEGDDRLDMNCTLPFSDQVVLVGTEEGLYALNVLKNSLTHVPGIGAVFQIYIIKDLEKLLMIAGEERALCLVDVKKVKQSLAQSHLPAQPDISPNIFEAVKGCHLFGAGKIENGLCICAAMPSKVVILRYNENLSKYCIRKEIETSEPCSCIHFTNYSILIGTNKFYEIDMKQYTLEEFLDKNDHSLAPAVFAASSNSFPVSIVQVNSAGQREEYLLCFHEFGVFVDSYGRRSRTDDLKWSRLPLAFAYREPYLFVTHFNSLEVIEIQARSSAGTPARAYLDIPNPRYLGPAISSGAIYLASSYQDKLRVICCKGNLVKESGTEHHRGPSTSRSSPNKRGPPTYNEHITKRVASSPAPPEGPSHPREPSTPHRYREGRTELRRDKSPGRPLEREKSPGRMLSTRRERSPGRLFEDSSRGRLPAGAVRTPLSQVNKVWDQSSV

Block 1
Species: human
Sample: microsomes or S9
Tested at: 2 µM
Time: 0.5 h
| Compound | remaining compound [%] |
| --- | --- |
| CCCN(C(=O)c1cc(S(=O)(=O)N2CCc3ccccc32)cn1C)c1ccccc1OC | < 1 |
| CCC(CO)NCc1ccc(OCc2cccs2)cc1 (stereo not drawn) | 9.61 |
| Clc1ccccc1C1NCCc2c1[nH]c1ccccc21 (stereo not drawn) | 92.1 |
| Cc1n[nH]cc1CNC1(Cc2ccc(Br)cc2)CCCCC1 | > 100 |
| c1ccc(Oc2ccc(Nc3ncnc4[nH]ncc34)cc2)cc1 | 1.51 |

Block 2
Target: Tyrosine-protein kinase CSK (CSK, Homo sapiens, UniProt P41240)
UniProt P41240, sequence (whole entry, looked up): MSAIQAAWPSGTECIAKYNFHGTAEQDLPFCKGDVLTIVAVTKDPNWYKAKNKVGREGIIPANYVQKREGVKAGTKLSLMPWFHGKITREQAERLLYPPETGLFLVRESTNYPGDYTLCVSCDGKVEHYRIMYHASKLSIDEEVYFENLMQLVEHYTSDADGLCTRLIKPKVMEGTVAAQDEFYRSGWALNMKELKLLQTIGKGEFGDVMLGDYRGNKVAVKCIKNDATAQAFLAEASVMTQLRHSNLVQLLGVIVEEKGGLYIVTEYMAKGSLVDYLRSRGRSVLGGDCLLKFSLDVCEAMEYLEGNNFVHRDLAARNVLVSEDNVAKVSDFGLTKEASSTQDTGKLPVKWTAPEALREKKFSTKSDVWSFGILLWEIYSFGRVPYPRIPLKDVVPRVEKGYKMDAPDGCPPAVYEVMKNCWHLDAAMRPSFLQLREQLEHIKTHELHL
Observed: enzyme activity
Mode: inhibitor
Tested at: 0.5 µM
Relative to: control
| Compound | remaining activity [%] |
| --- | --- |
| Cc1ccc(Nc2nccc(N(C)c3ccc4c(C)n(C)nc4c3)n2)cc1S(N)(=O)=O | 93 |
| COc1cc2ncnc(Nc3ccc(F)c(Cl)c3)c2cc1OCCCN1CCOCC1 | 95.4 |
| Cc1cccc(-c2[nH]c(C(C)(C)C)nc2-c2ccc3c(c2)OCO3)n1 | 102 |
| COc1cc2ncnc(Nc3ccc(Oc4ccccc4)cc3)c2cc1OC | 18.8 |
| COc1ccc(C(=O)Nc2sc3c(c2C(N)=O)CCCC3)cc1OC | 98.8 |
| O=S(=O)(c1cccc2cnccc12)N1CCCNCC1 | 87.9 |
| COc1ccc(CNC(=O)Nc2ncc([N+](=O)[O-])s2)cc1 | 102 |
| CNC(=O)c1cc(Oc2ccc(NC(=O)Nc3ccc(Cl)c(C(F)(F)F)c3)cc2)ccn1 | 90.3 |
| NCCNc1ncc(C(N)=O)c(Nc2cccc(C(F)(F)F)c2)n1 | 92.8 |
| Nc1ccc2ncnc(NCCc3ccc(Oc4ccccc4)cc3)c2c1 | 96.7 |
| CC(C)[C@H](CO)Nc1nc(Nc2cc(N)cc(Cl)c2)c2ncn(C(C)C)c2n1 | 79.3 |
| Cn1c2ccccc2c2c3c(c4c5ccccc5n(CCC#N)c4c21)CNC3=O | 81 |
| O=c1c2ccccc2[nH]c(=S)n1CCN1CCC(=C(c2ccc(F)cc2)c2ccc(F)cc2)CC1 | 119 |
| CO[C@H]1C[C@@H]2CC[C@@H](C)[C@@](O)(O2)C(=O)C(=O)N2CCCC[C@H]2C(=O)O[C@H]([C@H](C)C[C@@H]2CC[C@@H](O)[C@H](OC)C2)CC(=O)[C@H](C)/C=C(\C)[C@@H](O)[C@@H](OC)C(=O)[C@H](C)C[C@H](C)/C=C/C=C/C=C/1C | 101 |
| O=C1NC(=O)C(c2cn(CCCO)c3ncccc23)=C1c1cnccn1 | 86.9 |

Block 3
Compound: O=C(Nc1cccnn1)N1CCC(=Cc2cccc(Oc3ccc(C(F)(F)F)cn3)c2)CC1
Observed: cell-free assay
Method: competition with immobilised ligand
Tested at: 1 µM
| target | remaining binding [%] |
| --- | --- |
| EGFR (Homo sapiens, UniProt P00533, G719S) | 99 |
| PAK2 (Homo sapiens, UniProt Q13177) | 83 |
| DYRK1A (Homo sapiens, UniProt Q13627) | 100 |
| STK4 (Homo sapiens, UniProt Q13043) | 77 |
| CIT (Homo sapiens, UniProt O14578) | 79 |

Block 4
Organism: Sarcocystis neurona
Observed: parasite growth
Tested at: 10 µM
Time: 96 h
Notes: second screen
Relative to: untreated
| Compound | log2 fold change |
| --- | --- |
| Nc1cc(N2CCCCC2)nc(N)[n+]1[O-] | 0.4 |
| C=CC[C@@H]1/C=C(\C)C[C@H](C)C[C@H](OC)[C@H]2O[C@@](O)(C(=O)C(=O)N3CCCC[C@H]3C(=O)O[C@H](/C(C)=C/[C@@H]3CC[C@@H](O)[C@H](OC)C3)[C@H](C)[C@@H](O)CC1=O)[C@H](C)C[C@@H]2OC | -0.16 |
| COc1cc(C(=O)NC2CCCNC2)cc(OC)c1OC (stereo not drawn) | 0.49 |
| CCC(C)n1ncn(-c2ccc(N3CCN(c4ccc(OCC5COC(Cn6cncn6)(c6ccc(Cl)cc6Cl)O5)cc4)CC3)cc2)c1=O (stereo not drawn) | 0.66 |
| Oc1ncnc2[nH]ncc12 | 0.32 |

For quick reference, copied from above (block 2):
| Compound | remaining activity [%] |
| --- | --- |
| NCCNc1ncc(C(N)=O)c(Nc2cccc(C(F)(F)F)c2)n1 | 92.8 |
| Nc1ccc2ncnc(NCCc3ccc(Oc4ccccc4)cc3)c2c1 | 96.7 |
